{"data": "Earlier results, collected from citations in different studies", "note": "Protocols differ between the studies behind these lines. ± gives the spread as reported."}
{"Substance": "COc1ccc([C@H](CC(=O)O)N2CCN(CCCc3ccc4c(n3)NCCC4)C2=O)cn1", "target": "integrin αvβ3, human", "assay": "ligand binding, inhibitor", "system": "purified receptor", "IC50 [µM]": "8e-05"}
{"Substance": "CC(C)(O)CC(=O)NCCn1ccc2ncnc(Nc3ccc(Oc4cccc(C(F)(F)F)c4)c(Cl)c3)c21", "target": "HER2, human recombinant", "IC50 [µM]": 0.017}
{"Substance": "CCN(CCO)CCCC(C)Nc1ccnc2cc(Cl)ccc12 (centres unmarked)", "target": "Ito channel", "assay": "ion current, inhibitor", "system": "CHO cells", "setting": "room temperature", "IC50 [µM]": "> 300"}
{"Substance": "CNC(=O)c1ccccc1Nc1cc(Nc2ccc(N3CCOCC3)cc2OC)ncc1C(F)(F)F", "target": "FAK", "assay": "Tyr397 autophosphorylation", "system": "breast carcinoma cells", "IC50 [µM]": "~0.1"}
{"Substance": "CC(C)[C@@H]1NC(=O)C(C)(C)NC(=O)c2csc(n2)CNC(=O)C[C@@H](/C=C/CCS)OC1=O", "target": "HDAC10", "assay": "enzyme activity, inhibitor, cell-free", "IC50 [µM]": 0.0028}
{"Substance": "C=C(c1ccc(C(=O)O)cc1)c1cc2c(cc1C)C(C)(C)CCC2(C)C", "target": "CYP26A1", "assay": "enzyme activity, inhibitor", "setting": "added: 9-cis-retinoic acid", "IC50 [µM]": 12.3}
{"Substance": "O=C(Nc1ccccc1-c1ccc(F)c(F)c1)c1nccnc1C(F)(F)F", "target": "succinate dehydrogenase, Sclerotinia sclerotiorum", "assay": "enzyme activity, inhibitor", "setting": "median of 24 strains", "IC50 [µM]": 0.0018}
{"Substance": "COc1ccc(S(=O)(=O)N(CCO)c2ccccc2CN(C)CC=Cc2ccc(Cl)cc2)cc1", "target": "CaMKII", "assay": "inhibitor", "IC50 [µM]": "> 2"}
{"Substance": "N[C@@H](Cn1oc(=O)[nH]c1=O)C(=O)O", "target": "glutamate carboxypeptidase II", "assay": "enzyme activity, radioenzymatic or HPLC", "IC50 [µM]": 10}
{"Substance": "O=C(CCCCCN1C(=O)c2cccc3cccc(c23)C1=O)NO", "target": "class I HDACs", "assay": "inhibitor", "IC50 [µM]": "< 0.005"}
{"Substance": "COc1ccc(-c2nnnn2-c2cc(OC)c(OC)c(OC)c2)cc1", "target": "tubulin", "assay": "tubulin polymerisation, inhibitor", "setting": "added: tubulin 10 µM", "IC50 [µM]": "2.5 ± 0.3"}
{"Substance": "Cc1cc(C(C)Nc2ccccc2)c2oc(-c3ccncc3)cc(=O)c2c1 (centres unmarked)", "target": "phosphatidylinositol 4-phosphate 5-kinase type I beta", "assay": "enzyme activity, inhibitor", "setting": "added: 10 µM ATP", "IC50 [µM]": "> 100"}
{"Substance": "CNC(=O)[C@H](Cc1c[nH]c2ccccc12)NC(=O)[C@@H](CC(=O)NO)CC(C)C", "target": "recombinant ADAM12", "assay": "inhibitor", "IC50 [µM]": "> 10"}
{"Substance": "YSCPHR", "target": "ACE", "assay": "enzyme activity, inhibitor", "system": "peptide", "IC50 [µM]": 312}
{"Substance": "Cc1ccc([N+](=O)[O-])cc1S(=O)(=O)N(C)/N=C/c1cnc2ccc(Br)cn12", "target": "phosphatidylinositol 5-phosphate 4-kinase type II beta", "assay": "enzyme activity, inhibitor", "setting": "added: 10 µM ATP", "IC50 [µM]": "> 100"}
{"Substance": "CCCCOc1c2cc(C(=O)Nc3cc(C(=O)O)cc(C(=O)NC4CCCCC4)c3)cc1Cc1cc(C(=O)Nc3cc(C(=O)O)cc(C(=O)NC4CCCCC4)c3)cc(c1OCCCC)Cc1cc(C(=O)Nc3cc(C(=O)O)cc(C(=O)NC4CCCCC4)c3)cc(c1OCCCC)Cc1cc(C(=O)Nc3cc(C(=O)O)cc(C(=O)NC4CCCCC4)c3)cc(c1OCCCC)C2", "target": "VEGF", "assay": "growth factor activity", "IC50 [µM]": "> 10"}
{"Substance": "Cc1cc([C@H](C)Nc2ccccc2)c2oc(N3CCOCC3)cc(=O)c2c1", "target": "phosphatidylinositol 5-phosphate 4-kinase type II beta", "assay": "enzyme activity, inhibitor", "setting": "added: 10 µM ATP", "IC50 [µM]": "> 100"}
{"Substance": "CNC(=O)[C@@H](NC(=O)[C@H](CC(C)C)[C@H](O)C(=O)NO)C(C)(C)C", "target": "recombinant ADAM10", "assay": "enzyme activity, inhibitor", "IC50 [µM]": 0.078}
{"Substance": "[Cu+2]", "target": "voltage-gated calcium channels", "assay": "barium current, blocker", "IC50 [µM]": 920}
{"Substance": "CN1CC(=O)N2[C@H](c3ccc4c(c3)OCO4)c3[nH]c4ccccc4c3C[C@@H]2C1=O", "target": "PDE7", "IC50 [µM]": "> 10"}
{"Substance": "OC[C@H]1O[C@H](n2cc(-c3ccccc3)nn2)[C@@H](O)[C@@H](O)[C@@H]1O", "target": "FimH", "assay": "binding, competitive binding", "IC50 [µM]": 0.25}
{"Substance": "CC(C)n1nc(-c2ccc3oc(N)nc3c2)c2c(N)ncnc21", "target": "Plasmodium falciparum PI3K", "assay": "enzyme activity, ELISA", "IC50 [µM]": 0.056}
{"Substance": "C[C@@H](NCCN(C)C)[C@@H]1CC[C@@H]2[C@H]3CCc4cc(O)ccc4[C@@H]3CC[C@]21C", "target": "CatSper, mouse", "assay": "alkalization/depolarization-induced activation, inhibitor", "system": "mouse sperm", "IC50 [µM]": 0.83}
{"Substance": "O=c1c(O)c(-c2ccc(O)cc2)oc2cc(O)cc(O)c12", "target": "trypsin", "assay": "enzyme activity, inhibitor", "setting": "range of inhibitory concentrations", "IC50 [µM]": "50 to 100"}
{"Substance": "CCCC(CCC)C(=O)O", "target": "HDAC4", "assay": "inhibitor", "IC50 [µM]": 1500}
{"Substance": "O=P(O)(OC[C@H]1OC(O)[C@H](O)[C@@H]1O)OP(=O)(O)OC[C@H]1O[C@@H](n2cnc3c2ncn2ccnc32)[C@H](O)[C@@H]1O (some centres unmarked)", "target": "TRPM2 (human)", "assay": "channel current, inhibitor, inside-out patch clamp", "setting": "added: saturating cytosolic Ca2+", "IC50 [µM]": 112}
{"Substance": "APFPE", "target": "DPP-IV", "assay": "enzyme activity", "system": "peptide", "IC50 [µM]": "49.5 ± 0.5"}
{"Substance": "CC(=O)OC[C@H]1O[C@@H]([S-])[C@H](OC(C)=O)[C@@H](OC(C)=O)[C@@H]1OC(C)=O.CCP(CC)CC.[Au+]", "target": "thioredoxin reductase", "assay": "enzyme activity, inhibitor", "IC50 [µM]": 0.02}
{"Substance": "OC(c1cc(C(F)(F)F)nc2c(C(F)(F)F)cccc12)C1CCCCN1 (centres unmarked)", "target": "connexin-43 gap junction channel", "assay": "channel conductance, inhibitor", "IC50 [µM]": 12}
{"Substance": "Oc1cccc(-c2nc(N3CCOCC3)c3oc4ncccc4c3n2)c1", "target": "mTORC1", "assay": "enzyme activity, inhibitor", "setting": "added: 10 µM ATP", "IC50 [µM]": 0.02}
{"Substance": "CC1(C)CCC(C)(C)c2cc(C#Cc3ccc(C(=O)O)cc3)ccc21", "target": "CYP26A1", "assay": "enzyme activity, inhibitor", "setting": "added: 9-cis-retinoic acid", "IC50 [µM]": "8.3 ± 5.23"}
{"Substance": "GST-Skp2(1-424) fusion protein", "target": "CDK2-cyclin A (human)", "assay": "Rb phosphorylation, inhibitor", "setting": "added: Rb", "IC50 [µM]": 0.52}
{"Substance": "COc1ccc2c(c1OC)N=C(NC(=O)c1cccnc1)N1CCN=C21", "target": "phosphatidylinositol 4-phosphate 5-kinase type I beta", "assay": "enzyme activity, inhibitor", "setting": "added: 10 µM ATP", "IC50 [µM]": "> 100"}
{"Substance": "CC(C)C[C@H](CC(=O)NO)C(=O)N[C@H](C(=O)N[C@@H](C)C(=O)NCCN)C(C)(C)C", "target": "ADAM17 (recombinant)", "assay": "enzyme activity, inhibitor", "IC50 [µM]": "< 0.1"}
{"Substance": "NCCCOc1cc2ccccc2cc1C(=O)NCCCOc1cc2ccccc2cc1C(=O)Nc1ccc(Cl)cc1O", "target": "CREB", "assay": "CREB-mediated gene transcription, inhibitor", "system": "HEK293T", "setting": "added: forskolin 10 µM", "IC50 [µM]": "2.22 ± 0.38"}
{"Substance": "β-secretase inhibitor IV", "target": "BACE1 (human)", "assay": "amyloid-beta production", "system": "HEK293 overexpressing APP NFEV", "IC50 [µM]": 0.015}
{"Substance": "COc1ccc2c(c1)CCCN2c1nc(Cl)nc2ccccc12", "target": "tubulin", "assay": "tubulin polymerisation, inhibitor", "setting": "20 min, 30 °C", "IC50 [µM]": "0.93 ± 0.04"}
{"Substance": "COc1c(C)cc(NC(=O)c2nn(Cc3ccc(F)cc3)c3c2CN(C(=O)c2ccc[nH]2)C[C@]3(C)C(N)=O)cc1C", "target": "IDH1 R132G (human)", "assay": "enzyme activity, inhibitor", "IC50 [µM]": "0.009 to 0.017"}
{"note": "Excerpt of the above:"}
{"Substance": "OC[C@H]1O[C@H](n2cc(-c3ccccc3)nn2)[C@@H](O)[C@@H](O)[C@@H]1O", "target": "FimH", "assay": "binding, competitive binding", "IC50 [µM]": 0.25}
{"Substance": "OC(c1cc(C(F)(F)F)nc2c(C(F)(F)F)cccc12)C1CCCCN1 (centres unmarked)", "target": "connexin-43 gap junction channel", "assay": "channel conductance, inhibitor", "IC50 [µM]": 12}
{"Substance": "Cc1cc(C(C)Nc2ccccc2)c2oc(-c3ccncc3)cc(=O)c2c1 (centres unmarked)", "target": "phosphatidylinositol 4-phosphate 5-kinase type I beta", "assay": "enzyme activity, inhibitor", "setting": "added: 10 µM ATP", "IC50 [µM]": "> 100"}
{"Substance": "C=C(c1ccc(C(=O)O)cc1)c1cc2c(cc1C)C(C)(C)CCC2(C)C", "target": "CYP26A1", "assay": "enzyme activity, inhibitor", "setting": "added: 9-cis-retinoic acid", "IC50 [µM]": 12.3}
{"Substance": "COc1ccc2c(c1OC)N=C(NC(=O)c1cccnc1)N1CCN=C21", "target": "phosphatidylinositol 4-phosphate 5-kinase type I beta", "assay": "enzyme activity, inhibitor", "setting": "added: 10 µM ATP", "IC50 [µM]": "> 100"}
